# Results pooled from the literature.
# Lines come from different studies, so protocols differ. ± gives the spread as reported.
# lecA: PA-I galactophilic lectin (lecA, Pseudomonas aeruginosa, UniProt Q05097)
# Sequence of UniProt Q9NQG5 (whole entry, looked up): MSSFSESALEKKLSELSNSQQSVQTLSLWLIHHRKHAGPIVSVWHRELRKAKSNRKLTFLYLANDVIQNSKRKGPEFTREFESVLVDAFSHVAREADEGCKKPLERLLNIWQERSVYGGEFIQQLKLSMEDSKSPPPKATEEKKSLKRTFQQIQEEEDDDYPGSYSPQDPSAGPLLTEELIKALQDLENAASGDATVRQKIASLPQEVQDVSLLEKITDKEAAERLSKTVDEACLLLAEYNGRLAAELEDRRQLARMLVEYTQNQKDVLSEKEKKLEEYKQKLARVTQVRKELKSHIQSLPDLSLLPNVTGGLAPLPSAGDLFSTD
# Sequence of UniProt O35082 (whole entry, looked up): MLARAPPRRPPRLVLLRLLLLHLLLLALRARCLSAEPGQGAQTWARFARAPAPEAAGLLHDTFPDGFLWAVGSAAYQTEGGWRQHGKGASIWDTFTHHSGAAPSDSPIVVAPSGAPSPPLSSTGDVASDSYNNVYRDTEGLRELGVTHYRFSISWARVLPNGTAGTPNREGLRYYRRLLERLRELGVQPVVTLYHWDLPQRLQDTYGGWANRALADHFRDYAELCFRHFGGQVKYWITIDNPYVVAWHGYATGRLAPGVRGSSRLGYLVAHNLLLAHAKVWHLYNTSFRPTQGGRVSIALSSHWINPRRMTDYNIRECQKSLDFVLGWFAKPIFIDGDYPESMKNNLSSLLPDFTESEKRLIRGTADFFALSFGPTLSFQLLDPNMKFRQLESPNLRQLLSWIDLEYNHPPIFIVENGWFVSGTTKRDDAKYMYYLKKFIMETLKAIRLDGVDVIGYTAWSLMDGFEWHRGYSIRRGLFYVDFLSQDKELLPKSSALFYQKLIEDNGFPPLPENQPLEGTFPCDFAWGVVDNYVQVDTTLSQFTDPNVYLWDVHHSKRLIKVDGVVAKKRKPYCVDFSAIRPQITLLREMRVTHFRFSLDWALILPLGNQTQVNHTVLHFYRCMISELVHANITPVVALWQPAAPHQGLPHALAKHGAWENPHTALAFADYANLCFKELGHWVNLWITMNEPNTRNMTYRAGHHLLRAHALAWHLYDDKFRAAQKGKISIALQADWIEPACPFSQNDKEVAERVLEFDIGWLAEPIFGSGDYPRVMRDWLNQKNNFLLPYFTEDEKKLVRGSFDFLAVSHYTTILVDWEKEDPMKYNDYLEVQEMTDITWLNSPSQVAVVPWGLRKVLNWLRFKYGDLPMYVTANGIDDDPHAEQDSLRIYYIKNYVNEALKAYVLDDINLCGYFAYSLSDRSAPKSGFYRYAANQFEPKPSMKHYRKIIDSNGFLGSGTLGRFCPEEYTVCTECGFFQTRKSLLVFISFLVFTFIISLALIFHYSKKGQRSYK
# Sequence of UniProt P63104 (whole entry, looked up): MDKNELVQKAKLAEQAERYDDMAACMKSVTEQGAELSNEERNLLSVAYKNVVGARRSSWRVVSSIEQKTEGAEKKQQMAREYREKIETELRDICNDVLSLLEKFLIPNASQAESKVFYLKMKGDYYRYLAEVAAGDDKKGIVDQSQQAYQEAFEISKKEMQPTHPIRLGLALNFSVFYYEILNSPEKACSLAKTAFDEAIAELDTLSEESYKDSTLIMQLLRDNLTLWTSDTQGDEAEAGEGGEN
# Sequence of UniProt Q16762 (whole entry, looked up): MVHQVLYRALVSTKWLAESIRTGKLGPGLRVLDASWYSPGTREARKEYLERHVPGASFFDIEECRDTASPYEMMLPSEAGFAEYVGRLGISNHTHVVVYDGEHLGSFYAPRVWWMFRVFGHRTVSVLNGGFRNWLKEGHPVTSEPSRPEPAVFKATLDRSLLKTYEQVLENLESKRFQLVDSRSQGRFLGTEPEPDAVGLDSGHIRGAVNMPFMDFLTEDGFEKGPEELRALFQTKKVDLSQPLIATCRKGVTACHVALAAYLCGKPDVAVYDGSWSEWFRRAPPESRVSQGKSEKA
# Sequence of UniProt O49687 (whole entry, looked up): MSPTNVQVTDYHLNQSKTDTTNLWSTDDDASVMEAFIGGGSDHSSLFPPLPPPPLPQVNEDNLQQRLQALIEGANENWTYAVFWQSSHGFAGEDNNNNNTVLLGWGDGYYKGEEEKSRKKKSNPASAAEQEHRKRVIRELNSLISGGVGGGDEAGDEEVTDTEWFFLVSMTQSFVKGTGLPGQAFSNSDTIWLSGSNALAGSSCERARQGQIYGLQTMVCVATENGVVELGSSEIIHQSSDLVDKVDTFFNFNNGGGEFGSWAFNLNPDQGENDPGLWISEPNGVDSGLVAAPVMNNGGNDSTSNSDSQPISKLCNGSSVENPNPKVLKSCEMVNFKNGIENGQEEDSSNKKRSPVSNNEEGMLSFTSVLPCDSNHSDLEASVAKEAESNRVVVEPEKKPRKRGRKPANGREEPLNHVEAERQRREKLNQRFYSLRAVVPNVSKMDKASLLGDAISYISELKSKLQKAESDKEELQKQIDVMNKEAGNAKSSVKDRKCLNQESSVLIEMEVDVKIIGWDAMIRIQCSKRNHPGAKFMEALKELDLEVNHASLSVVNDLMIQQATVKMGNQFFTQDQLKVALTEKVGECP
# Sequence of UniProt Q9BR39 (whole entry, unmodified, looked up): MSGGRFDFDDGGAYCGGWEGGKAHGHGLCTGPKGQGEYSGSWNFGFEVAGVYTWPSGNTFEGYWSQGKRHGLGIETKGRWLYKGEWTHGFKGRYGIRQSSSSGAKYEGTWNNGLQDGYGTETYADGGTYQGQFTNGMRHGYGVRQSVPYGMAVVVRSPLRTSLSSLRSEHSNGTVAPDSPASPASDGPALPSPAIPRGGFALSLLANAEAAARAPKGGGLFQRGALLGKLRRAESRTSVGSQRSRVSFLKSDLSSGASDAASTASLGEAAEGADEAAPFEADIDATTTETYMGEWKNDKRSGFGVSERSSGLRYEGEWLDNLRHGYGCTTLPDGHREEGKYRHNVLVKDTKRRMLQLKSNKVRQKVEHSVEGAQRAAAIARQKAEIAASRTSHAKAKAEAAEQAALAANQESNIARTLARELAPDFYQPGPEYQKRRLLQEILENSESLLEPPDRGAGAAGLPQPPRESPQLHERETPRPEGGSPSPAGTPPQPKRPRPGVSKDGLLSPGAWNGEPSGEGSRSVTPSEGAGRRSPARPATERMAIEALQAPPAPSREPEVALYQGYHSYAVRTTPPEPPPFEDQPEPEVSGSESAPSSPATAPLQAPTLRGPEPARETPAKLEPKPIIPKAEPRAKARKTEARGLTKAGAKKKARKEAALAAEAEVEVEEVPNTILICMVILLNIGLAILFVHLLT
# Sequence of UniProt Q9Y294 (whole entry, looked up): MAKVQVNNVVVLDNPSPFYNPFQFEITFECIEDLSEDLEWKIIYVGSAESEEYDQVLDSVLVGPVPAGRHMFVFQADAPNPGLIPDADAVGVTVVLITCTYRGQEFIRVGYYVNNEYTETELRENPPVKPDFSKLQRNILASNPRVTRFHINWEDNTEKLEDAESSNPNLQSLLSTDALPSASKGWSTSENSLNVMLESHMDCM
# Sequence of UniProt Q9NZC7 (whole entry, looked up): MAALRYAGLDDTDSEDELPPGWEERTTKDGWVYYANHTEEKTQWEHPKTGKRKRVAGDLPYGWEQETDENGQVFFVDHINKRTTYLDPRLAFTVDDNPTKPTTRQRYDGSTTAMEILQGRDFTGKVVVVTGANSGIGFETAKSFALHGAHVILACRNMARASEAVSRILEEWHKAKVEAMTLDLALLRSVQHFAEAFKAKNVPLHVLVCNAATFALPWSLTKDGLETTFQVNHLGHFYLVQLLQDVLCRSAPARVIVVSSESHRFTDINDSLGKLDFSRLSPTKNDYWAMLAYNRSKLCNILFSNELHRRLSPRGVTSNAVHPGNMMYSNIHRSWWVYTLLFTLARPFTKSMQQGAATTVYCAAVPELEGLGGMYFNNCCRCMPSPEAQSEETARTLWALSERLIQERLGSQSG
# Sequence of UniProt Q767F1 (whole entry, unmodified, looked up): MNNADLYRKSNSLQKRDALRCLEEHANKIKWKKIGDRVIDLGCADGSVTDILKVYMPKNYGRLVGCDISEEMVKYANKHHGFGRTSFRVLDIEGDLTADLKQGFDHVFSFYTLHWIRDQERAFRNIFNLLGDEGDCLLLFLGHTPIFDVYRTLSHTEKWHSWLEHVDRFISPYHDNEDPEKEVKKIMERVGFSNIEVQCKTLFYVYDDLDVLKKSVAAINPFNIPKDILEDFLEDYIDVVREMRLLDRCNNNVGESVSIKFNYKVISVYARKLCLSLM
# Sequence of UniProt Q07741 (whole entry, looked up): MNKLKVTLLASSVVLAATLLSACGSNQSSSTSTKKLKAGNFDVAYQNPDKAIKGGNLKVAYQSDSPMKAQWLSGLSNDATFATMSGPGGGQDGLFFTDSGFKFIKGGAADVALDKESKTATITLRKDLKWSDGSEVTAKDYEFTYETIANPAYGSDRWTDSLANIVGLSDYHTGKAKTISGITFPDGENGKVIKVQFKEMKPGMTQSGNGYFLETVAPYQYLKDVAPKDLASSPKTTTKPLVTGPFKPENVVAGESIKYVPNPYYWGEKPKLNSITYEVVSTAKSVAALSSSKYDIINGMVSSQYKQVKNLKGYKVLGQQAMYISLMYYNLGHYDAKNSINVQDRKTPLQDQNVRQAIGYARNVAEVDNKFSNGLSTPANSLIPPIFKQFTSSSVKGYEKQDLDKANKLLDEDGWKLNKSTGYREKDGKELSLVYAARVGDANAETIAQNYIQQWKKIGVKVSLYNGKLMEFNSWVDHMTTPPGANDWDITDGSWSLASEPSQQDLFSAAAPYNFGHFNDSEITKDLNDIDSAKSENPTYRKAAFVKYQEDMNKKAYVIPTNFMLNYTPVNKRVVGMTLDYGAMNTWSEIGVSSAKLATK
Compound,target,test,setting,Kd [µM]
O=[N+]([O-])c1c(Br)c(Cl)c2cccnc2c1O,"blaNDM-1 (Klebsiella pneumoniae, UniProt C7C422)","binding, MST",,0.32
CC[C@H](C)[C@H](NC(=O)[C@H](CCCNC(=N)N)NC(=O)[C@H](CCCCN)NC(=O)[C@@H](NC(=O)[C@H](C)NC(=O)[C@H](CCCNC(=N)N)NC(=O)[C@H](CCC(N)=O)NC(=O)[C@H](CO)NC(=O)[C@H](CCCCN)NC(=O)[C@H](CC(N)=O)NC(=O)[C@@H](N)CCCNC(=N)N)[C@@H](C)O)C(=O)N[C@@H](CO)C(=O)N[C@@H](Cc1c[nH]cn1)C(=O)N[C@@H](CCSC)C(=O)N1CCC[C@H]1C(=O)N[C@@H](CO)C(=O)N[C@@H](CCCNC(=N)N)C(=O)N1CCC[C@H]1C(=O)N[C@@H](CCC(=O)O)C(=O)N[C@@H](CC(C)C)C(=O)N[C@@H](CO)C(=O)N[C@@H](C)C(=O)N[C@H](C(=O)N[C@@H](C)C(=O)N[C@H](C(=O)N[C@@H](CC(=O)O)C(=O)N[C@@H](CC(C)C)C(=O)N[C@@H](CCCNC(=N)N)C(=O)N[C@@H](CCCCN)C(=O)N[C@@H](CC(=O)O)C(=O)N[C@@H](CCCCN)C(=O)N[C@@H](C)C(=O)N[C@@H](CCCCN)C(=O)N[C@@H](COP(=O)(O)O)C(=O)N[C@@H](CSC/C=C(\C)CC/C=C(\C)CCC=C(C)C)C(=O)OC)[C@@H](C)O)C(C)C,"YWHAZ (Homo sapiens, UniProt P63104)","binding, stopped-flow fluorescence polarization",,0.37
CC[C@H](C)[C@H](NC(=O)[C@H](CCCCN)NC(=O)[C@H](Cc1ccccc1)NC(=O)[C@H](CCCCNC(=O)[C@H](CC(C)C)NC(=O)[C@@H]1CCCN1C(=O)[C@H](CCCCN)NC(=O)c1ccc(O[C@@H]2O[C@H](CO)[C@H](O)[C@H](O)[C@H]2O)cc1)NC(=O)[C@H](CC(C)C)NC(=O)[C@@H]1CCCN1C(=O)[C@H](CCCCN)NC(=O)c1ccc(O[C@@H]2O[C@H](CO)[C@H](O)[C@H](O)[C@H]2O)cc1)C(N)=O,lecA,isothermal titration calorimetry,"pH 7.5, 25 °C, with: 25 mM CaCl2",0.5 ± 0.2
Nc1ncnc2c1ncn2[C@@H]1O[C@H](COP(=O)(O)CP(=O)(O)OP(=O)(O)O)[C@@H](O)[C@H]1O,"Cyclic AMP-AMP-GMP synthase (cdnD02, Enterobacter hormaechei subsp. hoffmannii, UniProt P0DSP4)","binding, isothermal titration calorimetry",,39.5 ± 4.9
N=C(N)NCCC[C@H](NC(=O)[C@H](Cc1ccccc1)NC(=O)[C@@H]1CCCN1C(=O)[C@H](CO)NC(=O)[C@H](Cc1ccccc1)NC(=O)CNC(=O)[C@@H]1CCCN1C(=O)[C@@H]1CCCN1C(=O)[C@@H](N)CCCNC(=N)N)C(=O)N[C@@H](CCCCNS(=O)(=O)c1ccc(C2=c3cc4c5c(c3Oc3c2cc2c6c3CCCN6CCC2)CCC[N+]=5CCC4)c(S(=O)(=O)[O-])c1)C(=O)O,"Oligopeptide-binding protein OppA (oppA, Lactococcus lactis subsp. lactis, UniProt Q07741)","binding, fluorescence anisotropy","pH 6.5, 30 °C, with: dye-labelled peptide",19 ± 1
CC[C@H](C)[C@H](NC(=O)[C@H](Cc1c[nH]cn1)NC(=O)[C@H](CCCCNC(=O)[C@@H](NC(=O)[C@H](CCCCN)NC(=O)CSC[C@H](NC(=O)[C@H](Cc1ccccc1)NC(=O)[C@H](CCCCNC(=O)[C@H](CC(C)C)NC(=O)[C@@H]1CCCN1C(=O)[C@H](CCCCN)NC(=O)c1ccc(O[C@@H]2O[C@H](CO)[C@H](O)[C@H](O)[C@H]2O)cc1)NC(=O)[C@H](CC(C)C)NC(=O)[C@@H]1CCCN1C(=O)[C@H](CCCCN)NC(=O)c1ccc(O[C@@H]2O[C@H](CO)[C@H](O)[C@H](O)[C@H]2O)cc1)C(N)=O)[C@@H](C)CC)NC(=O)[C@@H](NC(=O)[C@H](CCCCN)NC(=O)CSC[C@H](NC(=O)[C@H](Cc1ccccc1)NC(=O)[C@H](CCCCNC(=O)[C@H](CC(C)C)NC(=O)[C@@H]1CCCN1C(=O)[C@H](CCCCN)NC(=O)c1ccc(O[C@@H]2O[C@H](CO)[C@H](O)[C@H](O)[C@H]2O)cc1)NC(=O)[C@H](CC(C)C)NC(=O)[C@@H]1CCCN1C(=O)[C@H](CCCCN)NC(=O)c1ccc(O[C@@H]2O[C@H](CO)[C@H](O)[C@H](O)[C@H]2O)cc1)C(N)=O)[C@@H](C)CC)C(N)=O,lecA,"binding, ITC",pH 7.5,0.023
CC[C@H](C)[C@H](NC(=O)[C@H](CCCNC(=N)N)NC(=O)NC[C@H](CCC(N)=O)NC(=O)NC[C@H](CC(C)C)NC(=O)NC[C@H](CCCNC(=N)N)NC(=O)NC[C@H](Cc1ccc2ccccc2c1)NC(=O)[C@H](CCCCN)NC(=O)[C@H](CCC(=O)O)NC(=O)[C@H](CCC(=O)O)NC(=O)[C@@H](NC(=O)[C@H](CO)NC(=O)[C@H](C)NC(C)=O)[C@@H](C)O)C(=O)N[C@@H](C)C(N)=O,"Histone chaperone ASF1A (Homo sapiens, UniProt Q9Y294)","binding, ITC",pH 7.5,13.1
CC(C)C[C@H](NC(=O)[C@H](CCCNC(=N)N)NC(=O)[C@H](CCC(=O)O)NC(=O)[C@H](CCCCN)NC(=O)[C@H](CCCNC(=N)N)NC(=O)[C@H](CCCCN)NC(=O)[C@H](CCC(=O)O)NC(=O)[C@H](CC(C)C)NC(=O)[C@H](Cc1ccccc1)NC(=O)[C@H](CCCNC(=N)N)NC(=O)[C@H](C)NC(=O)[C@H](CC(C)C)NC(=O)[C@H](CO)NC(=O)[C@]1(C)CCCC=CCCC[C@](C)(NC(=O)[C@@H]2CCCN2C(=O)[C@@H](NC(=O)[C@H](CO)NC(=O)c2ccc3c(c2)C(=O)OC32c3ccc(N(C)C)cc3Oc3cc(N(C)C)ccc32)C(C)C)C(=O)N[C@@H](C)C(=O)N[C@@H](CCCNC(=N)N)C(=O)N[C@@H](CCCCN)C(=O)N1)C(=O)O,"Transcription factor MYC4 (MYC4, Arabidopsis thaliana, UniProt O49687)","binding, fluorescence anisotropy","pH 8.0, MYC4 residues 55-253",2.6 ± 0.3
C[C@@H](O)[C@H](NC(=O)[C@@H]1CCCN1C(=O)[C@H](CO)NC(=O)[C@H](Cc1ccc(O)cc1)NC(=O)[C@H](COP(=O)(O)O)NC(=O)[C@@H]1CCCN1C(=O)[C@H](COP(=O)(O)O)NC(=O)[C@@H](NC(=O)[C@@H]1CCCN1C(=O)[C@H](CO)NC(=O)[C@H](Cc1ccc(O)cc1)NC(=O)[C@H](CO)NC(=O)[C@@H]1CCCN1C(=O)[C@@H](N)CO)[C@@H](C)O)C(=O)N[C@@H](COP(=O)(O)O)C(=O)N1CCC[C@H]1C(=O)N[C@@H](COP(=O)(O)O)C(=O)N[C@@H](Cc1ccc(O)cc1)C(=O)N[C@@H](CO)C(=O)O,"Regulation of nuclear pre-mRNA domain-containing protein 1B, CID domain (RPRD1B, Homo sapiens, UniProt Q9NQG5)",isothermal titration calorimetry,"pH 7.5, 25 °C",> 1000
CC(C)=CCC/C(C)=C/CC/C(C)=C/C(=O)O,"Juvenile hormone acid O-methyltransferase (JHAMT, Bombyx mori, UniProt Q767F1, H114A)","binding, fluorescence binding","pH 8.0, 25 °C",0.39 ± 0.06
O=C1SCCC1NC(C(=O)NCc1ccccc1)C1CC1 (stereo not drawn),"TST (Homo sapiens, UniProt Q16762)",activator,binding to substrate-bound enzyme,93.3
CC(C)C[C@H](NC(=O)[C@@H](NC(=O)[C@@H](NC(=O)CNC(=O)CNC(=O)CNC(=O)CNC(=O)CNC(=O)[C@H](CC(N)=O)NC(=O)[C@H](CCCNC(=N)N)NC(=O)[C@H](Cc1c[nH]cn1)NC(=O)[C@H](CCCNC(=N)N)NC(=O)[C@H](Cc1ccc(O)cc1)NC(=O)[C@@H]1CCCN1C(=O)[C@@H]1CCCN1C(=O)[C@@H]1CCCN1C(=O)[C@@H]1CCCN1C(=O)[C@H](CC(C)C)NC(=O)[C@@H](NC(=O)[C@@H](NC(=O)CN)[C@@H](C)O)C(C)C)[C@@H](C)O)C(C)C)C(=O)N1CCC[C@H]1C(=O)N[C@@H](C)C(=O)N[C@@H](C)C(=O)N1CCC[C@H]1C(=O)N[C@@H](Cc1ccc(O)cc1)C(=O)N[C@@H](CCCNC(=N)N)C(=O)N[C@@H](Cc1c[nH]cn1)C(=O)N[C@@H](CCCNC(=N)N)C(=O)N[C@@H](CC(N)=O)C(=O)O,"WW domain-containing oxidoreductase, WW1-WW2 tandem domains (WWOX, Homo sapiens, UniProt Q9NZC7)",ITC,20 °C,27.1
CC[C@H](C)[C@H](NC(=O)[C@H](CCCNC(=N)N)NC(=O)[C@H](CCC(=O)O)NC(=O)[C@@H](N)CCC(=O)O)C(=O)N[C@@H](Cc1ccccc1)C(=O)N[C@@H](CCCNC(=N)N)C(=O)N[C@@H](CCCNC(=N)N)C(=O)N[C@H](C(=O)NCC(=O)NCC(=O)N[C@@H](CC(C)C)C(=O)N[C@@H](Cc1ccccc1)C(=O)NCC(=O)N[C@@H](CCC(N)=O)C(=O)N[C@H](C(=O)N[C@@H](CC(=O)O)C(=O)O)C(C)C)[C@@H](C)O,"JPH2 (Homo sapiens, UniProt Q9BR39, del162-274)",isothermal titration calorimetry,"pH 7.4, 25 °C",1.8
CSCC[C@H](NC(C)=O)C(=O)N[C@@H](Cc1ccccc1)C(=O)N[C@@H](CC(N)=O)C(=O)N[C@H]1CSCc2cc3cc(c2)CSC[C@H](NC(=O)[C@H]([C@@H](C)O)NC(=O)[C@H](Cc2c[nH]cn2)NC(=O)[C@H](CO)NC(=O)[C@H](Cc2ccc(O)cc2)NC(=O)[C@H](Cc2ccccc2)NC(=O)[C@@H]2CCCN2C(=O)[C@H](CC(C)C)NC(=O)[C@H](CC(C)C)NC1=O)C(=O)N[C@@H](CO)C(=O)N[C@H](C(=O)NCC(=O)N[C@@H](CO)C(=O)NCC(=O)N[C@@H](CO)C(=O)NCC(=O)N[C@@H](CO)C(=O)N[C@@H](CC(=O)O)C(=O)N[C@@H](Cc1ccc(O)cc1)C(=O)N[C@@H](CCCCN)C(=O)N[C@@H](CC(=O)O)C(=O)N[C@@H](CC(=O)O)C(=O)N[C@@H](CC(=O)O)C(=O)N[C@@H](CC(=O)O)C(=O)N[C@@H](CCCCN)C(N)=O)CSC3,"FGFR4 (Homo sapiens, UniProt P22455)","binding, BLI",,> 10
CC[C@H](C)[C@H](NC(=O)[C@@H](NC(=O)[C@@H](NC(=O)[C@@H](NC(=O)[C@H](Cc1c[nH]c2ccccc12)NC(=O)[C@H](CCC(=O)O)NC(=O)[C@H](CO)NC(=S)Nc1ccc2c(c1)C(=O)OC21c2ccc(O)cc2Oc2cc(O)ccc21)C(C)C)[C@@H](C)CC)C(C)C)C(=O)N[C@@H](C)C(=O)N[C@@H](Cc1ccccc1)C(=O)N[C@@H](CC(C)C)C(=O)N[C@H](C(=O)N[C@@H](CC(N)=O)C(=O)N[C@@H](CC(C)C)C(=O)O)[C@@H](C)O,"Rgg transcriptional regulator (Streptococcus pneumoniae, UniProt A0A0E7KI02)","binder, fluorescence polarization","20 min, pH 7.4, 20 °C, fluorescein-labelled peptide",1.66
CC[C@H](C)[C@H](NC(=O)[C@H](CC(C)C)NC(=O)[C@H](CC(C)C)NC(=O)CNC(=O)[C@H](CCCCN)NC(=O)[C@H](C)NC(=O)[C@H](CC(C)C)NC(=O)[C@H](CC(C)C)NC(=O)[C@H](CCCCN)NC(=O)[C@H](Cc1c[nH]c2ccccc12)NC(=O)[C@@H](N)CC(N)=O)C(=O)N[C@@H](CCCNC(=N)N)C(=O)N[C@@H](CCC(=O)O)C(=O)N[C@@H](CCCNC(=N)N)C(=O)N[C@@H](CC(C)C)C(=O)N[C@@H](CCCCN)C(=O)N[C@@H](CCCNC(=N)N)C(=O)O,"Centrin-1, N-terminal 21 residues deleted (CEN1, Toxoplasma gondii, UniProt A0A125YHX7)","binding, ITC","pH 7.5, 25 °C, with: 5 mM CaCl2",0.396 ± 0.0609
CC(=O)NC1C(OC2C(O)C(O)OC(CO)C2O)OC(CO)C(O)C1OC1OC(CO)C(O)C(OC2OC(CO)C(O)C(O)C2O)C1OC1OC(C)C(O)C(O)C1O (stereo not drawn),"sly, domain 4 (Streptococcus suis, UniProt Q55996)",binding,,6.4
CC(C)C[C@H](NC(=O)[C@@H]1CCCN1C(=O)[C@H](CC(=O)O)NC(=O)[C@H](CO)NC(=O)[C@H](C)NC(=O)c1cc(-c2ccccc2)nc2ccccc12)C(=O)NCC(=O)N[C@H](C(=O)N[C@H](C(=O)N[C@@H](CCCNC(=N)N)C(=O)NCC(=O)N[C@@H](CCCNC(=N)N)C(=O)N[C@@H](C)C(=O)N[C@@H](CCCNC(=N)N)C(=O)N[C@H](CCCNC(=O)c1ccc2c(c1)C(=O)OC21c2ccc(N(C)C)cc2Oc2cc(N(C)C)ccc21)C(N)=O)C(C)C)C(C)C,"Klotho (Kl, Mus musculus, UniProt O35082)",BLI competition binding,"30 min, 30 °C, with: 100 nM mouse Klotho, immobilized Pep-10-Biotin",0.0013 ± 0.0004

# For quick reference, copied from above:
Compound,target,test,setting,Kd [µM]
CC[C@H](C)[C@H](NC(=O)[C@H](CCCNC(=N)N)NC(=O)NC[C@H](CCC(N)=O)NC(=O)NC[C@H](CC(C)C)NC(=O)NC[C@H](CCCNC(=N)N)NC(=O)NC[C@H](Cc1ccc2ccccc2c1)NC(=O)[C@H](CCCCN)NC(=O)[C@H](CCC(=O)O)NC(=O)[C@H](CCC(=O)O)NC(=O)[C@@H](NC(=O)[C@H](CO)NC(=O)[C@H](C)NC(C)=O)[C@@H](C)O)C(=O)N[C@@H](C)C(N)=O,"Histone chaperone ASF1A (Homo sapiens, UniProt Q9Y294)","binding, ITC",pH 7.5,13.1
O=[N+]([O-])c1c(Br)c(Cl)c2cccnc2c1O,"blaNDM-1 (Klebsiella pneumoniae, UniProt C7C422)","binding, MST",,0.32
